Measured values pooled from the literature.
Each numbered part is a random draw from the data of one study; scales do not carry over between parts.

Set 1 — technique: universal PBM; form: double-stranded DNA, one strand shown; medium: in vitro; tested at: not given; reading: higher = stronger binding
Target: Sal-like protein 4, full length isoform B (SALL4, Homo sapiens, UniProt Q9UJQ4-2, residues 1-616)
Setting: 8-mer, flanks averaged, mean of replicates
Target sequence (chain): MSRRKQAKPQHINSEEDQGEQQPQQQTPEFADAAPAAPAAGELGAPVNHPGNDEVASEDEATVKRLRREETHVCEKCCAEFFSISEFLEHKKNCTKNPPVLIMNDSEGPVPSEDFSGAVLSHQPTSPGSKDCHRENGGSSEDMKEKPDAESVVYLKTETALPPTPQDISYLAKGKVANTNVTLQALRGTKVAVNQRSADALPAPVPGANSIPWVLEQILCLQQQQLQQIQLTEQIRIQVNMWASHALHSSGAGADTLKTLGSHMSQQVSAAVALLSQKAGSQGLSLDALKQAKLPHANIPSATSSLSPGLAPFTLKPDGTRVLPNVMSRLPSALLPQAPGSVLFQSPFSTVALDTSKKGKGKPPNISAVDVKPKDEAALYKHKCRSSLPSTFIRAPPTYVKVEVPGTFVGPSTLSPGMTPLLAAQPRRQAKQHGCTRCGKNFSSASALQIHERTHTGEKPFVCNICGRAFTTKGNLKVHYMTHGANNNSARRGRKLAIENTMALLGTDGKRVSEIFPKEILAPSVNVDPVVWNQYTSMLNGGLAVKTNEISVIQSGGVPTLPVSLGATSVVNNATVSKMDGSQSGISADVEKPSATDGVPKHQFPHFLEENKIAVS
Oligonucleotide	E-score
CGCGTTCA	-0.0551
CTAGACAC	-0.0131
GGCTCGAA	-0.185
CGTCGTGA	-0.256
TCGAAGCA	-0.00747
CGGTAACG	-0.102
CATCGAAG	0.113
CCCCATAG	-0.0826

Set 2 — technique: protein binding microarray; form: double-stranded DNA, one strand shown; medium: in vitro; tested at: not given; reference: not given; reading: higher = stronger binding
Target: Histone acetyltransferase KAT6A, winged helix 1, GST fusion (KAT6A, Homo sapiens, UniProt Q92794, residues 1-85)
Setting: 8-mer, flanks averaged, mean of 2 arrays, mostly near background
Construct (chain): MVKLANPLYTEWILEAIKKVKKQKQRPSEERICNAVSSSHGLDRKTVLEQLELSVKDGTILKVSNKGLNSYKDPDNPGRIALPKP
Oligonucleotide	E-score
AATTTCAG	-0.0533
AGGATTCC	-0.173
AATAAGGT	-0.0149
AGTAATCG	-0.00532
ATATCGAC	-0.0867
ACACGGAT	0.202
ATCAGTAG	-0.218
CACACGCG	0.346
CCCTTTCC	0.0677
ATGGGACA	-0.116

Set 3 — technique: protein-binding microarray; form: double-stranded DNA, one strand shown; medium: in vitro; tested at: 2540 nM top; setting: 60-bp whole probe; with: salmon DNA 0.4 mg/ml; reference: random background probes; reading: higher = stronger binding; constant ends, left off below: GCCTAGCAC … GTCTTGATTCGCTTGACGCTGCTG
Target: Interferon regulatory factor 3, full length, phosphomimetic (IRF3, Homo sapiens, UniProt Q14653, residues 1-427, S386D/S396D/S398D/S402D/T404D/S405D)
Residues (chain): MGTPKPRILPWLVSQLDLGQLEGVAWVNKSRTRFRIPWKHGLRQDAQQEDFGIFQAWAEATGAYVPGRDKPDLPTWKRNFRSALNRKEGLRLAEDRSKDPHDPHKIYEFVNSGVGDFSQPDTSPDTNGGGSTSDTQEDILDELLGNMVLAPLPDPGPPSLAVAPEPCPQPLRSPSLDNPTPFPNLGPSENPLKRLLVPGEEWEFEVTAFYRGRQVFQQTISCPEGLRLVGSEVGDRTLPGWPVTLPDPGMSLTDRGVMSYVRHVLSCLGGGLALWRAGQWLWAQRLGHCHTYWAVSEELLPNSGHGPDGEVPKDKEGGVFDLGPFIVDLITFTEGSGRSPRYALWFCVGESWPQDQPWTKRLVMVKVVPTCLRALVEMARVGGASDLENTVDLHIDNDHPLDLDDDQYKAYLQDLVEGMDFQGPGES
Oligonucleotide	fitted relative affinity
TAATTTTTACTTTCTGAATGGTGCTAG	3.71 z-score
GACGGGCTCGGTATCGGGACGTGCTAG	0.327 z-score
GACGGTATCGGGTTACGGGACGTGCTA	2.27 z-score
GACGATATGAGACTGGAGACGTGCTAG	-0.26 z-score
GCCGGTATCGACACTGGGGACGTGCTA	0.976 z-score
TTATGGTGTGGAGAAGGCACGTGCTAG	-0.782 z-score
TTAGGTCTCGGTCTCGGTTGGTGCTAG	0.835 z-score
TCATTTTTTCATATATAACTGTGCTAG	1.83 z-score
TTAGGTCTCCTTTTCCTATAGTGCTAG	5.17 z-score

Single results of other studies
Substance	target	test	test system	conditions	how to read	quantity	result
PhoQ, residues 284 288 289 292 302 303 MLMVEA	PhoP, residues 12 14 15 18 19 MHTVL (Escherichia coli, UniProt P23836)	Sort-seq, item: YFP reporter	E. coli	PhoQ-PhoP variant library, with: 10 µM Mg2+	reference: high Mg2+ state, higher = stronger signaling	fold induction	3.86
